{"data": "Values quoted from earlier work that unrelated publications cite", "note": "Protocols differ between the studies behind these lines. ± gives the spread as reported.", "chain of UniProt Q14289 (whole entry, looked up)": "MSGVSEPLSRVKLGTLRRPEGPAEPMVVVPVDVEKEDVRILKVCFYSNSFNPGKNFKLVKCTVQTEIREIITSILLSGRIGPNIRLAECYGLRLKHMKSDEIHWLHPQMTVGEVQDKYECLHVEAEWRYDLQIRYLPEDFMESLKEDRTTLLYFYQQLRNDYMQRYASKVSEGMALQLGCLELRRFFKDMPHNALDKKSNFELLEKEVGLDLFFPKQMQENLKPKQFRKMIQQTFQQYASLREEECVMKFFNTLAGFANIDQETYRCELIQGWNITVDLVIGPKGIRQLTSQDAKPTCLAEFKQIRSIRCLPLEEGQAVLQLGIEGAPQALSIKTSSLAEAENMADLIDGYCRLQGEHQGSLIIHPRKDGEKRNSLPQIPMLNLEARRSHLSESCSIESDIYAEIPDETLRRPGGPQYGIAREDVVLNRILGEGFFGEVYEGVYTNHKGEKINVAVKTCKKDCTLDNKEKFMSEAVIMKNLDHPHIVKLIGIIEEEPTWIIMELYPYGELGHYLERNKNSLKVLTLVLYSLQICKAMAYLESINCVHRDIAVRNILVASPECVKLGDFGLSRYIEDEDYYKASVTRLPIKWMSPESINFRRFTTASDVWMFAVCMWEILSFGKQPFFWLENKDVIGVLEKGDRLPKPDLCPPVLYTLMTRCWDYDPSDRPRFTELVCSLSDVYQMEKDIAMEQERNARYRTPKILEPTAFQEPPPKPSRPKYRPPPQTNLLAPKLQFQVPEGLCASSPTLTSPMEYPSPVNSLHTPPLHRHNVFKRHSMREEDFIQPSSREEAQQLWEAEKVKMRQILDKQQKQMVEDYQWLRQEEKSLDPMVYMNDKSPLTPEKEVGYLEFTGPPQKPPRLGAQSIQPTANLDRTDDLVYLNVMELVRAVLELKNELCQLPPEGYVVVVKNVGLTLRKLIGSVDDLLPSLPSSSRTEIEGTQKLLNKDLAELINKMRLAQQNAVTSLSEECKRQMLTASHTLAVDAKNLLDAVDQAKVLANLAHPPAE"}
{"SMILES": "CC(C)(C)NC(=O)[C@H]1CC[C@H]2[C@@H]3CC[C@H]4NC(=O)C=C[C@]4(C)[C@H]3CC[C@]12C", "test system": "human, plasma", "setting": "concentration not given", "endpoint": "Cmax", "result": "220 nM"}
{"SMILES": "Cc1ccc([C@@H]2O[C@H](CO)[C@@H](O)[C@H](O)[C@H]2O)cc1Cc1ccc(-c2ccc(F)cc2)s1", "test system": "human, preserved kidney function", "setting": "300 mg, steady state, mean", "endpoint": "Cmax", "result": "3380 ng/mL"}
{"SMILES": "C[C@@H](Oc1ccc(S(C)(=O)=O)cc1C(=O)N1C[C@@H]2C[C@]2(c2cc(C(F)(F)F)on2)C1)C(F)(F)F", "test system": "human", "setting": "oral, 50 mg, solution, fasted, single dose", "endpoint": "Cmax", "result": "865 nM"}
{"SMILES": "O=C(c1cc(Cc2n[nH]c(=O)c3ccccc23)ccc1F)N1CCN(C(=O)C2CC2)CC1", "test system": "human", "setting": "oral, 100 mg tablet, single dose, added: itraconazole 0 mg", "endpoint": "Cmax", "result": "3000 ng/mL"}
{"SMILES": "NC(=O)c1cn(Cc2c(F)cccc2F)nn1", "test system": "human, plasma total", "setting": "800 mg", "endpoint": "Cmax", "result": "25900 nM"}
{"SMILES": "CC(C)(C)NCC(O)COc1cccc2c1CC(O)C(O)C2 (stereo not drawn)", "test system": "human, plasma", "setting": "concentration not given", "endpoint": "Cmax", "result": "430 nM"}
{"SMILES": "C#C[C@]1(O)CC[C@H]2[C@@H]3CCC4=CC(=NO)CC[C@@H]4[C@H]3CC[C@@]21CC (mixture of isomers)", "test system": "human fasted", "setting": "0.215 mg, after 7 days, added: norgestimate", "endpoint": "Cmax", "result": "2.12 ng/mL"}
{"SMILES": "CC[C@H](Nc1ncnc2[nH]cnc12)c1nc2cccc(F)c2c(=O)n1-c1ccccc1", "test system": "human", "setting": "dose not given", "endpoint": "Cmax", "result": "5200 nM"}
{"SMILES": "CC(C)C[C@H](NC(=O)[C@H](Cc1ccccc1)NC(=O)c1cnccn1)B(O)O", "test system": "human, plasma", "setting": "concentration not given", "endpoint": "Cmax", "result": "1300 nM"}
{"SMILES": "Cc1cn[nH]c1", "test system": "human, plasma", "setting": "concentration not given, total plasma concentration", "endpoint": "Cmax", "result": "210000 nM"}
{"SMILES": "Cc1nsc(-c2nnc3n2CCN(C(=O)c2ccc(F)cc2)[C@@H]3C)n1", "test system": "human", "setting": "oral, 20 mg, day 21, fed", "endpoint": "Cmax", "result": "185 ng/mL"}
{"SMILES": "O=C(c1cc(Cc2n[nH]c(=O)c3ccccc23)ccc1F)N1CCN(C(=O)C2CC2)CC1", "test system": "human", "setting": "300 mg single dose, tablet", "endpoint": "Cmax", "result": "7410 ng/mL"}
{"SMILES": "CO[C@H]1/C=C/O[C@@]2(C)Oc3c(C)c(O)c4c(O)c(c(/C=N/N5CCN(C)CC5)c(O)c4c3C2=O)NC(=O)/C(C)=C\\C=C\\[C@H](C)[C@H](O)[C@@H](C)[C@@H](O)[C@@H](C)[C@H](OC(C)=O)[C@@H]1C", "test system": "human, plasma total", "setting": "600 mg", "endpoint": "Cmax", "result": "9800 nM"}
{"SMILES": "COc1cccc2c1C(=O)c1c(O)c3c(c(O)c1C2=O)C[C@@](O)(C(=O)CO)C[C@@H]3O[C@H]1C[C@H](N)[C@H](O)[C@H](C)O1", "test system": "human, plasma", "setting": "intravenous infusion, 9 mg/m2/day, 96 h infusion", "endpoint": "Cmax", "result": "29 ± 8 nM"}
{"SMILES": "Cn1c(=O)c2c(ncn2C)n(C)c1=O", "test system": "human, plasma", "setting": "oral, 100 mg, single dose with coffee", "endpoint": "Cmax", "result": "1340 ng/mL"}
{"SMILES": "CCN1CCN(Cc2ccc(Nc3ncc(F)c(-c4cc(F)c5nc(C)n(C(C)C)c5c4)n3)nc2)CC1", "test system": "human", "setting": "100 mg single dose, tablet", "endpoint": "Cmax", "result": "127 ng/mL"}
{"SMILES": "Cn1cnc2c(F)c(Nc3ccc(Br)cc3Cl)c(C(=O)NOCCO)cc21", "test system": "human", "setting": "75 mg, given alone", "endpoint": "Cmax", "result": "1440 ng/mL"}
{"SMILES": "CCc1cc2c(cc1CC)CC(NC[C@H](O)c1ccc(O)c3[nH]c(=O)ccc13)C2", "test system": "human, plasma", "setting": "inhaled, dose not given", "endpoint": "Cmax", "result": "0.51 nM"}
{"SMILES": "OC(Cn1cncn1)(Cn1cncn1)c1ccc(F)cc1F", "test system": "human", "setting": "oral, 100 mg single dose", "endpoint": "Cmax", "result": "1870 ng/mL"}
{"SMILES": "CNCc1cc(-c2ccccc2F)n(S(=O)(=O)c2cccnc2)c1", "test system": "human", "setting": "20 mg, single dose", "endpoint": "Cmax", "result": "23 ng/mL"}
{"SMILES": "CO[C@@H](C)Cn1c(=O)n(C)c2cnc3ccc(-c4cncc(C(C)(C)O)c4)cc3c21", "test system": "human", "setting": "325 mg once daily, steady state, day 15", "endpoint": "Cmax", "result": "1450 ng/mL"}
{"SMILES": "C[C@H](Cn1cnc2c(N)ncnc21)OCP(=O)(O)O", "test system": "human, plasma", "setting": "oral, 300 mg tenofovir disoproxil fumarate, single dose, geometric mean", "endpoint": "Cmax", "result": "263 ng/mL"}
{"SMILES": "Cc1cc(C)c(CNC(=O)c2cc(Cl)c3c(c2C)O[C@@](C)([C@H]2CC[C@H](N(C)C)CC2)O3)c(=O)[nH]1", "test system": "human, plasma", "setting": "oral, 50 mg single dose, study, geometric mean", "endpoint": "Cmax", "result": "306 ng/mL"}
{"SMILES": "CC(C)c1noc(N2CCC(COc3ccc(-c4ccc(S(C)(=O)=O)cc4)nc3)CC2)n1", "test system": "human", "setting": "dose not given", "endpoint": "Cmax", "result": "2000 nM"}
{"SMILES": "COCCCC/C(=N\\OCCN)c1ccc(C(F)(F)F)cc1", "test system": "human", "setting": "oral, 25 mg single dose", "endpoint": "Cmax", "result": "7.09 ng/mL"}
{"SMILES": "COc1cc(N2CCC(N3CCN(C)CC3)CC2)ccc1Nc1ncc(Cl)c(Nc2ccccc2P(C)(C)=O)n1", "test system": "human, plasma", "setting": "dose not given", "endpoint": "Cmax", "result": "2900 nM"}
{"SMILES": "O=C(c1cccnc1-c1ccncc1)N1CCC(O)(Cc2ccccc2)CC1", "test system": "human", "setting": "dose not given, fed vs fasted", "endpoint": "Cmax", "result": "decreased"}
{"SMILES": "CC(C)OC(=O)[C@H](C)N[P@](=O)(OC[C@H]1O[C@@H](n2ccc(=O)[nH]c2=O)[C@](C)(F)[C@@H]1O)Oc1ccccc1", "test system": "human, plasma total", "setting": "400 mg", "endpoint": "Cmax", "result": "1140 nM"}
{"SMILES": "CNC(=O)c1ccccc1Sc1ccc2c(/C=C/c3ccccn3)n[nH]c2c1", "test system": "human, plasma", "setting": "concentration not given", "endpoint": "Cmax", "result": "56 nM"}
{"SMILES": "C=CC(=O)N1CCC([C@@H]2CCNc3c(C(N)=O)c(-c4ccc(Oc5ccccc5)cc4)nn32)CC1", "test system": "human patients", "setting": "oral, 40 mg once daily, day 1", "endpoint": "Cmax", "result": "80 ± 43 ng/mL"}
{"SMILES": "COc1cc2c(Oc3ccc4[nH]c(C)cc4c3F)ccnc2cc1OCC1(N)CC1", "test system": "human", "setting": "10 mg/day, two cycles", "endpoint": "Cmax", "result": "65.2 ± 28.9 ng/mL"}
{"SMILES": "Nc1cc(C(F)(F)F)c(-c2nc(N3CCOCC3)nc(N3CCOCC3)n2)cn1", "target or system": "PTK2B (Homo sapiens, UniProt Q14289)", "assay": "enzyme activity", "setting": "10 µM", "how to read": "reference: untreated", "endpoint": "remaining activity", "result": "100%"}
{"SMILES": "C[C@H]1CO[C@@H]2Cn3cc(C(=O)NCc4ccc(F)cc4F)c(=O)c(O)c3C(=O)N12", "test system": "human", "setting": "oral solution, 10 mg, geometric mean", "endpoint": "Cmax", "result": "1930 ng/mL"}
{"SMILES": "COCCc1ccc(OCC(O)CNC(C)C)cc1 (stereo not drawn)", "test system": "human", "setting": "400 mg single dose, fasted", "endpoint": "Cmax", "result": "94 ng/mL"}
{"SMILES": "CC#CC(=O)N1CCC[C@H]1c1nc(-c2ccc(C(=O)Nc3ccccn3)cc2)c2c(N)nccn12", "test system": "human", "setting": "100 mg twice daily", "endpoint": "Cmax", "result": "827 ng/mL"}
{"SMILES": "COc1ccc2[nH]c([S+]([O-])Cc3ncc(C)c(OC)c3C)nc2c1 (stereo not drawn)", "test system": "human post-RYGB patients", "setting": "oral tablet, 20 mg once daily, day 6, 1 months after surgery", "endpoint": "Cmax", "result": "462 ng/mL"}
{"note": "For quick reference, copied from above:"}
{"SMILES": "CNC(=O)c1ccccc1Sc1ccc2c(/C=C/c3ccccn3)n[nH]c2c1", "test system": "human, plasma", "setting": "concentration not given", "endpoint": "Cmax", "result": "56 nM"}
{"SMILES": "C=CC(=O)N1CCC([C@@H]2CCNc3c(C(N)=O)c(-c4ccc(Oc5ccccc5)cc4)nn32)CC1", "test system": "human patients", "setting": "oral, 40 mg once daily, day 1", "endpoint": "Cmax", "result": "80 ± 43 ng/mL"}
{"SMILES": "COc1cc2c(Oc3ccc4[nH]c(C)cc4c3F)ccnc2cc1OCC1(N)CC1", "test system": "human", "setting": "10 mg/day, two cycles", "endpoint": "Cmax", "result": "65.2 ± 28.9 ng/mL"}
